Assay results from different studies.
Compare with care: the assays were run in different laboratories. ± gives the spread as reported.
TDP1: Tyrosyl-DNA phosphodiesterase 1 (TDP1, Homo sapiens, UniProt Q9NUW8)
UniProt Q9NUW8, sequence (whole entry, looked up): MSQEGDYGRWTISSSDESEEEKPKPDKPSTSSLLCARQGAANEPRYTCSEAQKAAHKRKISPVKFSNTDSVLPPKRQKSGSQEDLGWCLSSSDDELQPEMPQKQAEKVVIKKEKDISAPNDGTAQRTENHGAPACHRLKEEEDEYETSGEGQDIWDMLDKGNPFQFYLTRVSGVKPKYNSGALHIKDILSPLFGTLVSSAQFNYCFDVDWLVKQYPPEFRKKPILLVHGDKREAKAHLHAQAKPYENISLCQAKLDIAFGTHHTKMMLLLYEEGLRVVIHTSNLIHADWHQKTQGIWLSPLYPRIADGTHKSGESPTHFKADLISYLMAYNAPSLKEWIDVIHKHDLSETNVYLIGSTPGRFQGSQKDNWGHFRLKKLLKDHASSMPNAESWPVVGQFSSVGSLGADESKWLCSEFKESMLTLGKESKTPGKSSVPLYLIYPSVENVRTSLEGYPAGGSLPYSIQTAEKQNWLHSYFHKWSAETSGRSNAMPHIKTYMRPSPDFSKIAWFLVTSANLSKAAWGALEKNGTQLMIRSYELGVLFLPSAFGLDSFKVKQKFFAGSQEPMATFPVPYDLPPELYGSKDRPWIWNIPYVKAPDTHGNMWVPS
UniProt P04756, sequence (whole entry, unmodified, looked up): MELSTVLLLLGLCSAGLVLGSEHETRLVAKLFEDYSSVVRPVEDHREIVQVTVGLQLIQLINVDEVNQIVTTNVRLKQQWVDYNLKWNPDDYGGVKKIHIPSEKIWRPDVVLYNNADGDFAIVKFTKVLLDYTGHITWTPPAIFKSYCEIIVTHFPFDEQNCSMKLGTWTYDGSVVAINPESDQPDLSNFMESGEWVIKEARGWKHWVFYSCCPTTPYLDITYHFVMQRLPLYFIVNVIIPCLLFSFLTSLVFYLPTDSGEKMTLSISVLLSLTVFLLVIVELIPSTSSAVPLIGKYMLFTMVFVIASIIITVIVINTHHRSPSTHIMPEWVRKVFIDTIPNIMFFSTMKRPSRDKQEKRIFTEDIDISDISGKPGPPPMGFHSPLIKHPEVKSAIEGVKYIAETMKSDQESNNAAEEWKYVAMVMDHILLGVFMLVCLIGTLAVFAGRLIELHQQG
UniProt P40261, sequence (whole entry, looked up): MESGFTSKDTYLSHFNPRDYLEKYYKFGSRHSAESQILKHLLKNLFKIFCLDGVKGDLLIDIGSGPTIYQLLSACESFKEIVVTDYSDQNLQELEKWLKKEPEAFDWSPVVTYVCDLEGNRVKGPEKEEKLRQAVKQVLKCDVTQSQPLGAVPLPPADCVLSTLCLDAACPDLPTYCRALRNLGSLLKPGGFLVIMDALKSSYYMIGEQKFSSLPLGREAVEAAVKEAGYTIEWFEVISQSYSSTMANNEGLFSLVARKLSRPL
UniProt Q68D91, sequence (whole entry, looked up): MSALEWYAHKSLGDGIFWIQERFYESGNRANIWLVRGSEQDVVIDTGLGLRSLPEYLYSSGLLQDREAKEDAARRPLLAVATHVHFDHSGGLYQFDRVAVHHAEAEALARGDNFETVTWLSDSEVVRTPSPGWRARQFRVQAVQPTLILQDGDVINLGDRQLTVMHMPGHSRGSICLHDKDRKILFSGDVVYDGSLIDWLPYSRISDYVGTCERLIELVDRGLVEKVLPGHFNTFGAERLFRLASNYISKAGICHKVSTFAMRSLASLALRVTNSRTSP
UniProt P61077, sequence (whole entry, looked up): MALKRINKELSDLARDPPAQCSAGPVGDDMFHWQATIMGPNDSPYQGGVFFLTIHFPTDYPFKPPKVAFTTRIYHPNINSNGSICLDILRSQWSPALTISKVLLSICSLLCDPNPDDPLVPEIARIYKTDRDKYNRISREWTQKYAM
UniProt P02716, sequence (whole entry, unmodified, looked up): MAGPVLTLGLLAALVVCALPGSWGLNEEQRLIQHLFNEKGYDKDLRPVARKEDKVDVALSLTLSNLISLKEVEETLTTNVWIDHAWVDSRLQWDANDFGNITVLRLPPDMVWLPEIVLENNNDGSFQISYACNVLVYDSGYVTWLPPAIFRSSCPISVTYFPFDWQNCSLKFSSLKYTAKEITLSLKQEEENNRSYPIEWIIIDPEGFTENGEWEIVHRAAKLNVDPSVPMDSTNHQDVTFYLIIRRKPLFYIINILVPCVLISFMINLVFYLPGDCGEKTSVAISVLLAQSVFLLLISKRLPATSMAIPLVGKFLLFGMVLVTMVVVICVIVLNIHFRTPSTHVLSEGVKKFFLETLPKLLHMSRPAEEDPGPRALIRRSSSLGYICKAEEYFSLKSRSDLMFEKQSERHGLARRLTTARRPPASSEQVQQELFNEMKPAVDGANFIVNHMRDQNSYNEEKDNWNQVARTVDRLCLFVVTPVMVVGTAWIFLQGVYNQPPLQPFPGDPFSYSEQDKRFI
UniProt O75151, sequence (whole entry, looked up): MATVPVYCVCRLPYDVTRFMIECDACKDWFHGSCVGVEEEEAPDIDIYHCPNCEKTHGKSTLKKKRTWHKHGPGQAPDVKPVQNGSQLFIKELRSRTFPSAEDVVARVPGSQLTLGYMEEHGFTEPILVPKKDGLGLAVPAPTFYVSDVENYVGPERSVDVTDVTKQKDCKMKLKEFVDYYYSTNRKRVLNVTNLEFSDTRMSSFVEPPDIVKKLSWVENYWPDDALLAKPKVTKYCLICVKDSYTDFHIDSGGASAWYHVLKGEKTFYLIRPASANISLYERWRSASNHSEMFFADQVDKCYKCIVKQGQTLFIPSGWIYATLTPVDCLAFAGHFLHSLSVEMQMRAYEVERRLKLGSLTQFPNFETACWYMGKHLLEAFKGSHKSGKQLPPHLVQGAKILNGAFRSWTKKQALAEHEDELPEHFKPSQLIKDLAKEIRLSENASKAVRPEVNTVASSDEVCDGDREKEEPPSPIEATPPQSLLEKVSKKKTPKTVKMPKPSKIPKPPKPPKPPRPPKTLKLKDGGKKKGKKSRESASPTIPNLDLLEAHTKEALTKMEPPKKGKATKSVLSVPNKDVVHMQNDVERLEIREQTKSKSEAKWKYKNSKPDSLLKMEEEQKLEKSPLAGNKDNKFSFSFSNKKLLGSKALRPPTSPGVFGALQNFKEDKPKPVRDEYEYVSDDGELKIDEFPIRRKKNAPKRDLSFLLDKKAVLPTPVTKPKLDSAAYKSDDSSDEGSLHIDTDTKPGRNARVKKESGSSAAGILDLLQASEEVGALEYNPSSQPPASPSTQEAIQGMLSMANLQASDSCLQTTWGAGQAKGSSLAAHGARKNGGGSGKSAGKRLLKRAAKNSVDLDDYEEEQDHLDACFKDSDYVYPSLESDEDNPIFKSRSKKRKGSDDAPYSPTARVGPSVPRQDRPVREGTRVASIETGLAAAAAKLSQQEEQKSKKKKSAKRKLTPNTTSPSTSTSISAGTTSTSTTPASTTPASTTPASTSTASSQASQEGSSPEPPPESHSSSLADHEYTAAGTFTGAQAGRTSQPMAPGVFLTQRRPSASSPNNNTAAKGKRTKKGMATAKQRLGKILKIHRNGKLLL
UniProt P46937, sequence (whole entry, looked up): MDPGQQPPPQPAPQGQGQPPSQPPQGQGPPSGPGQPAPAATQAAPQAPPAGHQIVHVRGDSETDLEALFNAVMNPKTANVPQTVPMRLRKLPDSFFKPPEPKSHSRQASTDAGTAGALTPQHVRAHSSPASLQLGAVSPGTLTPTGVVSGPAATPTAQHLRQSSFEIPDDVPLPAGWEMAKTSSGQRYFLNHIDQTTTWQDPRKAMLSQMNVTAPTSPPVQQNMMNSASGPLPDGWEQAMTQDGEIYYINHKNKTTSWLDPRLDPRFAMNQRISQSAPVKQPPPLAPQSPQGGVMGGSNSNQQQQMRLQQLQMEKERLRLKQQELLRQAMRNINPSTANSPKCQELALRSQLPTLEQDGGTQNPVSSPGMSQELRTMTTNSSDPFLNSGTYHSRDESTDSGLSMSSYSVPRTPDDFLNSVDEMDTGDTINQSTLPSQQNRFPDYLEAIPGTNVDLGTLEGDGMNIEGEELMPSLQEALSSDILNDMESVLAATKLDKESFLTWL
UniProt P23280, sequence (whole entry, looked up): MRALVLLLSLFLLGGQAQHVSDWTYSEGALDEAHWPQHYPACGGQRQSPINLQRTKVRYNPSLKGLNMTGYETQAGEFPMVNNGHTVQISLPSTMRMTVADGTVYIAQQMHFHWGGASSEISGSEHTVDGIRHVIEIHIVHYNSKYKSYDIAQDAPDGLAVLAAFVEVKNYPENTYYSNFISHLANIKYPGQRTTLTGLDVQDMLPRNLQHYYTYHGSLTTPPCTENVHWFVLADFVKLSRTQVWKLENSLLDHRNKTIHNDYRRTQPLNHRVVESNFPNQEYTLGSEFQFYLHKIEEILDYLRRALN
UniProt Q13237, sequence (whole entry, looked up): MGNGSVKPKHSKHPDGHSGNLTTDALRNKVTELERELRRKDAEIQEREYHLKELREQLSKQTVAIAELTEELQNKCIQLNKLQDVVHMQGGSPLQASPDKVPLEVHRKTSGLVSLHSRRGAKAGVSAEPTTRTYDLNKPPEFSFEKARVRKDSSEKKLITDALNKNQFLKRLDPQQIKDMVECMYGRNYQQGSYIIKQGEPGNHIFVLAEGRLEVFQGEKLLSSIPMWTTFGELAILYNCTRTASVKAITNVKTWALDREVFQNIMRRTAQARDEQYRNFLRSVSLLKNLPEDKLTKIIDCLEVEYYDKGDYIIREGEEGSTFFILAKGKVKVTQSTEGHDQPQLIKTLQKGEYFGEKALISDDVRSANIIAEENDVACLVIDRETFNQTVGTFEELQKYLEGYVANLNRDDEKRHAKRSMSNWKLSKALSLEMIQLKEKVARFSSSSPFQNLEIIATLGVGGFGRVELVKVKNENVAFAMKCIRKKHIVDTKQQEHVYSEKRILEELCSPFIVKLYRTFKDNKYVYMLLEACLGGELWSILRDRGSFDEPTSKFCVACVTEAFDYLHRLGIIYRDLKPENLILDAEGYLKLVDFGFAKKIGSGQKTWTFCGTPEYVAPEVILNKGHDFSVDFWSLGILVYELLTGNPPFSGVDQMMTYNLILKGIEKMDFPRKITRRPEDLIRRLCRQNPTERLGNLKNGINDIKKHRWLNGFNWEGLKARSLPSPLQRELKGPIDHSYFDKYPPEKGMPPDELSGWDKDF

COc1ccc(Cn2ccc3ccc(C(=O)NO)cc32)cc1 — Kd (MBLAC2 (Homo sapiens, UniProt Q68D91); inhibitor, competition pulldown; SW620 and MV4-11 lysate; 1 h): > 30.2 µM
CC(=O)N[C@H]1[C@@H](OC(=O)NCCOCCOCCOCCOCCOCCNC(=O)O[C@H]2O[C@H](CO)[C@@H](O)[C@H](O)[C@H]2NC(C)=O)O[C@H](CO)[C@@H](O)[C@@H]1O — Kd (wheat germ agglutinin; ITC; pH 7.0, 298 K): 0.208 ± 0.018 µM
Cc1cc(OCc2ccccc2Br)c(C)c2c1CCC1C(CN(C)C)C(=O)OC21 (centres unmarked) — Kd (UBE2D3 (Homo sapiens, UniProt P61077); binding, MST): 0.0127 µM
CCc1nc2cc3ccccc3cc2cc1C(=O)N1CCC[C@H]1C(=O)N[C@@H](CCC/C=C/CCC[C@H](NC(=O)[C@@H]1CCCN1C(=O)c1cc2cc3ccccc3cc2nc1CC)C(=O)N[C@@H](CCCCN)C(=O)NCCCN)C(=O)N[C@@H](CCCCN)C(=O)NCCCN — Kd (HIV-1 frameshift site RNA; SPR): 2.62 µM
C[N+]1(C)CCCC1 — Kd (Chrnd/Chrna1/Chrne (Mus musculus, UniProt P02716+P04756+P20782, G173K/S470W); resting state binding, agonist, single-channel kinetics): 230 µM
NCCCC[C@H](NC(=O)[C@H](C/C=C\C[C@H](NC(=O)[C@@H]1CCCN1)C(=O)N[C@@H](CCCCN)C(=O)NCCCN)NC(=O)[C@@H]1CCCN1)C(=O)NCCCN — Kd (HIV-1 frameshift site RNA; SPR): 0.115 µM
NS(=O)(=O)c1cc(C(=O)NCCCC(=O)O)c(NC2CCCCC2)cc1Cl — Kd (CA6 (Homo sapiens, UniProt P23280); pH 7): 110 µM
O=C(O)c1ccc(Nc2c(-c3ccc(CON=Cc4cccc5c4OCO5)cc3)nc3cc(-c4ccccc4)ccn23)cc1 — inhibition (TDP1; enzyme activity, inhibitor; 100 µM, unpurified compound): 44.8%
Cc1c[nH]c2nccc(-c3ccc(C(=O)N[C@@H]4c5c(F)cc(C(F)F)cc5C[C@@H]4O)cn3)c12 — Kd (PRKG2 (Homo sapiens, UniProt Q13237); binding, competition with immobilised ligand): 0.165 µM
Cc1ccc(C(N)=O)cn1 — Kd (Nicotinamide N-methyltransferase, SAM-bound (NNMT, Homo sapiens, UniProt P40261); substrate, SPR; 20 °C, with: SAM): 3.98 µM
O=C(O)c1ccc(Nc2c(-c3ccccc3)nc3ccc(CON=Cc4ccc(=O)n(Cc5ccc(Cl)c(Cl)c5)c4)cn23)cc1 — inhibition (TDP1; enzyme activity, inhibitor; 100 µM, unpurified compound): 41.6%
O=C(NC1CCCc2c1[nH]c1ccccc21)c1n[nH]c2c1CCC2 (centres unmarked) — Kd (Lysine-specific demethylase PHF2 (Homo sapiens, UniProt O75151); binding, fluorescence): 49 µM
CCc1nc2cc3ccccc3cc2cc1C(=O)N[C@@H](CCCCN)C(=O)N[C@@H](C/C=C/C[C@H](NC(=O)[C@H](CCCCN)NC(=O)c1cc2cc3ccccc3cc2nc1CC)C(=O)N1CCC[C@H]1C(=O)NCCCN)C(=O)N1CCC[C@H]1C(=O)NCCCN — Kd (HIV-1 frameshift site RNA; SPR): 0.0804 µM
CCOC(=O)C1CC(CC)C2C=CC3CCN(C(=O)C4CCC5C=CC6(CCCN6C(=O)C(Cc6ccccc6Cl)NC(C)=O)C(=O)N54)C3C(=O)N12 (centres unmarked) — Kd (YAP1 (Homo sapiens, UniProt P46937); binding, NMR): 1100 µM

For quick reference, copied from above:
Cc1cc(OCc2ccccc2Br)c(C)c2c1CCC1C(CN(C)C)C(=O)OC21 (centres unmarked) — Kd (UBE2D3 (Homo sapiens, UniProt P61077); binding, MST): 0.0127 µM
CCc1nc2cc3ccccc3cc2cc1C(=O)N1CCC[C@H]1C(=O)N[C@@H](CCC/C=C/CCC[C@H](NC(=O)[C@@H]1CCCN1C(=O)c1cc2cc3ccccc3cc2nc1CC)C(=O)N[C@@H](CCCCN)C(=O)NCCCN)C(=O)N[C@@H](CCCCN)C(=O)NCCCN — Kd (HIV-1 frameshift site RNA; SPR): 2.62 µM
